Measured values pooled from the literature.
Parts stem from different laboratories: compare values within a part only.
Sequence of UniProt P36897 (whole entry, looked up): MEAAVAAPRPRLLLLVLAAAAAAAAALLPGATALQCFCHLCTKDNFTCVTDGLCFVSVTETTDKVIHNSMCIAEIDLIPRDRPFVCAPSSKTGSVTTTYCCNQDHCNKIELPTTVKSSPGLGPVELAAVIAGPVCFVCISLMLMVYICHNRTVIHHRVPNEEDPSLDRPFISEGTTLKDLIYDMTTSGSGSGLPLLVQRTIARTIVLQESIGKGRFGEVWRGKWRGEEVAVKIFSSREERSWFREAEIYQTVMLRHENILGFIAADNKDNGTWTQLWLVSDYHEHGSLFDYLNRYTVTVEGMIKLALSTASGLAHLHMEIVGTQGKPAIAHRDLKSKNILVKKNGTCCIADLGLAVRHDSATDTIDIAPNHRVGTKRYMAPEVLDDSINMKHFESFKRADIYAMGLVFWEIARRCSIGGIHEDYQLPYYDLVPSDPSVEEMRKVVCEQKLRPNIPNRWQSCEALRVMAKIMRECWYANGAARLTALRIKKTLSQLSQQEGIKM
Sequence of UniProt Q9H4B4 (whole entry, looked up): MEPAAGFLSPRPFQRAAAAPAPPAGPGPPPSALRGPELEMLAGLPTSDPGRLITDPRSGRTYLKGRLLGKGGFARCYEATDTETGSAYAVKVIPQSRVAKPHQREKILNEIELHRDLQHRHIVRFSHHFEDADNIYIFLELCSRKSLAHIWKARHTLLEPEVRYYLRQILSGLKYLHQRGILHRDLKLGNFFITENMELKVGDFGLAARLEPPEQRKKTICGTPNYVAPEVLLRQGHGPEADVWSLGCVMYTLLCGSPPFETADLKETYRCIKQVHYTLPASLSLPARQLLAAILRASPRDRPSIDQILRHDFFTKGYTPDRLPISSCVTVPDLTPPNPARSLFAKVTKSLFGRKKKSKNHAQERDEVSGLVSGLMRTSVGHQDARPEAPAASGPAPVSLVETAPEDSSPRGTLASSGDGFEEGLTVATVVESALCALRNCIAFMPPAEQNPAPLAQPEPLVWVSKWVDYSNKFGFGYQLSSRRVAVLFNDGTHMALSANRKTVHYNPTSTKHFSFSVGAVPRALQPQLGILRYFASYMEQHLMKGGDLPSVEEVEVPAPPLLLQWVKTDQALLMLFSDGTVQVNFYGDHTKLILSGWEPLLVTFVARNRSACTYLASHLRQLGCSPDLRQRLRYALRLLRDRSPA
Sequence of UniProt Q86Y07 (whole entry, looked up): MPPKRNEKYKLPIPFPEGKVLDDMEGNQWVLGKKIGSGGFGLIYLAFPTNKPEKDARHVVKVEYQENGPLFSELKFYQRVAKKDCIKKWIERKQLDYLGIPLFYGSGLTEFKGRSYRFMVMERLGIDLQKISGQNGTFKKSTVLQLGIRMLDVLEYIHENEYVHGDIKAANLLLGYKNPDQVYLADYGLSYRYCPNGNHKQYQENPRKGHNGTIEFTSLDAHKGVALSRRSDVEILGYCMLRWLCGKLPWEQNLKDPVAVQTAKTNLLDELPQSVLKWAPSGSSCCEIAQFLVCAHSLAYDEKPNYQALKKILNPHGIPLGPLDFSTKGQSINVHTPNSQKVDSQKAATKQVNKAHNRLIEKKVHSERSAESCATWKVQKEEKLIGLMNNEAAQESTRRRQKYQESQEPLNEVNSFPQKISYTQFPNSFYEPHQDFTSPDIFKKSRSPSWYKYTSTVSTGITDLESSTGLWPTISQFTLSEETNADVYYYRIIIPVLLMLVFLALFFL
Sequence of UniProt Q8WXR4 (whole entry, looked up): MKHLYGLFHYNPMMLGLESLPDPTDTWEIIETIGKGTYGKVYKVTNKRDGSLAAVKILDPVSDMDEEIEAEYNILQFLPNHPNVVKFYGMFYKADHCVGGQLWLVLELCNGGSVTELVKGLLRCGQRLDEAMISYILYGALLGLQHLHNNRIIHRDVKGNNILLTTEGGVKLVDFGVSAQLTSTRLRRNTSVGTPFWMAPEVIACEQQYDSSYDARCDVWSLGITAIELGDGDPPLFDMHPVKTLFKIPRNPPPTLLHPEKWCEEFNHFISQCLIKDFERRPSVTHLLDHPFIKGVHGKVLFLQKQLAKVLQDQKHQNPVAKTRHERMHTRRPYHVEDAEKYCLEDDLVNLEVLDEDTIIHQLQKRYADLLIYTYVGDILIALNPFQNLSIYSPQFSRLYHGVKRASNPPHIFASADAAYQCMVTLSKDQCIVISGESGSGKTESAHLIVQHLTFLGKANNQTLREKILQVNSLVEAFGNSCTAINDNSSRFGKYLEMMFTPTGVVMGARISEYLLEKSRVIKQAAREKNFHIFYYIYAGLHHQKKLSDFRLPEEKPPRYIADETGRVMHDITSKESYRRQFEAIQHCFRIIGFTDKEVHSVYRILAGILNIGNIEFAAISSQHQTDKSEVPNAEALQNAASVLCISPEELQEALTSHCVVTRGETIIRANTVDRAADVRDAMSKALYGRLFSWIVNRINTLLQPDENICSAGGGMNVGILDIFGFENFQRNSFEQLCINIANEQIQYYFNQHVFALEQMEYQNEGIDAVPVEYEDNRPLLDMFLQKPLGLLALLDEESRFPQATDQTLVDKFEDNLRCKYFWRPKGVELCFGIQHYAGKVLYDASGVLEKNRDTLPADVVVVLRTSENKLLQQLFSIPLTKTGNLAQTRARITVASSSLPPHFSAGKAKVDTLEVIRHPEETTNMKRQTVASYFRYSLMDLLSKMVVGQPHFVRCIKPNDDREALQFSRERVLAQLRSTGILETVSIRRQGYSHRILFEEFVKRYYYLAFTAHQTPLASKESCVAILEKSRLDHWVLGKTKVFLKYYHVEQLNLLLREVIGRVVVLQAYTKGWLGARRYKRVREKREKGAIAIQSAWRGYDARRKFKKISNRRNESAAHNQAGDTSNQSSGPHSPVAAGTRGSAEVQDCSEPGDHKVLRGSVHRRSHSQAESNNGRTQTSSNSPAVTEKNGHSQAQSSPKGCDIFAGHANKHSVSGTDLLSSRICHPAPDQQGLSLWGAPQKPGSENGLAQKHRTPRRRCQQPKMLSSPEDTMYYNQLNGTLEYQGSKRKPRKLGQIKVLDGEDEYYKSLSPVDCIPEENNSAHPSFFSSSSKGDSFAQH
Sequence of UniProt Q02750 (whole entry, looked up): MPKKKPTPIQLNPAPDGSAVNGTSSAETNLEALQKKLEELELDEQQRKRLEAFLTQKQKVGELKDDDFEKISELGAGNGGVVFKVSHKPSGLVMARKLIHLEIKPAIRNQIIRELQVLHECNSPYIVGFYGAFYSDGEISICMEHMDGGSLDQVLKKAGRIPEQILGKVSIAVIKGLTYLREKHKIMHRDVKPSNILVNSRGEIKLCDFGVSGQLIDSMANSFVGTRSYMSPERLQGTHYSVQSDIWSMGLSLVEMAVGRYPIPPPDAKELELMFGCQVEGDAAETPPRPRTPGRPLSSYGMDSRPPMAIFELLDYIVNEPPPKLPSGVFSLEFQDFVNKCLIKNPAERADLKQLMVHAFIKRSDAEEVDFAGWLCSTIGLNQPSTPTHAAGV
Sequence of UniProt Q13237 (whole entry, looked up): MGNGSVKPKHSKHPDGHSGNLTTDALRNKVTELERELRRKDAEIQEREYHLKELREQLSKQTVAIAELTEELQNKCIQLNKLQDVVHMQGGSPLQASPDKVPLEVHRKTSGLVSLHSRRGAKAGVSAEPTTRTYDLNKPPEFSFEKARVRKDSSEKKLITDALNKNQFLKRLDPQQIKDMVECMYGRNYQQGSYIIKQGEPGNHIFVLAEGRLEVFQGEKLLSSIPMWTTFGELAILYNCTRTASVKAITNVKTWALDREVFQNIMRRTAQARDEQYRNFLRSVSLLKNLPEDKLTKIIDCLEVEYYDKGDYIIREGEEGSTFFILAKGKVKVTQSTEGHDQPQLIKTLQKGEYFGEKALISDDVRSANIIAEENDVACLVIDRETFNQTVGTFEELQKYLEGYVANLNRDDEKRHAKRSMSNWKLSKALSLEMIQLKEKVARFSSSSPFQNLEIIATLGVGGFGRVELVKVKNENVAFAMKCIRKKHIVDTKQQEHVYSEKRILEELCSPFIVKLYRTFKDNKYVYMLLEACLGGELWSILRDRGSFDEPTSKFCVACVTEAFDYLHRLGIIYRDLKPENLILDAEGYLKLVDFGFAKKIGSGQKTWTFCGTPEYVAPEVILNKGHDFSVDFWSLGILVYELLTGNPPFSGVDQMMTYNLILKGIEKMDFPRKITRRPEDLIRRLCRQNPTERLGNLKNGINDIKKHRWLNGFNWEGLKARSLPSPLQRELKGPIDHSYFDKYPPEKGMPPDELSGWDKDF
Sequence of UniProt Q8N568 (whole entry, looked up): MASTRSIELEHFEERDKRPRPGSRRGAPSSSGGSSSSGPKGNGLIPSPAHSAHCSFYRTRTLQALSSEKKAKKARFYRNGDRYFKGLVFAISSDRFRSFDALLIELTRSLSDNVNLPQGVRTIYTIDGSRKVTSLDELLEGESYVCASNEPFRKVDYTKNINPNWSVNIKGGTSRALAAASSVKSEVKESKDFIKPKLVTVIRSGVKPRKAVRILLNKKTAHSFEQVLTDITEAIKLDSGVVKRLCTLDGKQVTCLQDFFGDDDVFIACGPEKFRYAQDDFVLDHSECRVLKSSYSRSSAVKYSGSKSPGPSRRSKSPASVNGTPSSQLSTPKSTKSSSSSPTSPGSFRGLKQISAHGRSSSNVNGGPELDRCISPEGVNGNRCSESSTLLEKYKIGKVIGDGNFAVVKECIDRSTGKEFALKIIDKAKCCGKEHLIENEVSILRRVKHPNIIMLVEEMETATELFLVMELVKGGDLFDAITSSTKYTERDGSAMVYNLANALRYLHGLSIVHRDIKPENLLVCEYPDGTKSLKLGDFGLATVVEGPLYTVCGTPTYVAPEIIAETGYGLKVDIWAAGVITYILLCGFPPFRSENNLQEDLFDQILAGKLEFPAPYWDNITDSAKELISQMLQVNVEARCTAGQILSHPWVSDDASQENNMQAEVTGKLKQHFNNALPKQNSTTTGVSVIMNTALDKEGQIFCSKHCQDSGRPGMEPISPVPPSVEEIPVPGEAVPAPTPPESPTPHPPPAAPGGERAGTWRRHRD

Sample 1
SMILES: CCS(=O)(=O)c1cc2cc(C[C@](O)(CC(C)(C)c3ccc(F)cc3C(N)=O)C(F)(F)F)[nH]c2cn1
Read-out: cell-free assay
Method: competition with immobilised ligand
Concentration: 1 µM
target	remaining binding [%]
VRK2 (Homo sapiens, UniProt Q86Y07)	100
PRKCI (Homo sapiens, UniProt P41743)	100
MET (Homo sapiens, UniProt P08581, Y1235D)	100
TGFBR1 (Homo sapiens, UniProt P36897)	100

Sample 2
Structure (SMILES): COc1cc2c(cc1OC)-c1[nH]nc(Nc3cccc(F)c3)c1C2
Read-out: enzyme activity
Action: inhibitor
Concentration: 0.5 µM
Baseline: control
target	remaining activity
RPS6KA4 (Homo sapiens, UniProt O75676)	99.8%
Cyclin-dependent kinase 9, with cyclin K (CDK9, Homo sapiens, UniProt P50750)	91.9%
MARK2 (Homo sapiens, UniProt Q7KZI7)	77.2%
PRKG2 (Homo sapiens, UniProt Q13237)	92.5%
MAP2K1 (Homo sapiens, UniProt Q02750)	90.1%
CLK4 (Homo sapiens, UniProt Q9HAZ1)	77.7%
DCLK2 (Homo sapiens, UniProt Q8N568)	88.2%
NEK3 (Homo sapiens, UniProt P51956)	97.1%
ROCK1 (Homo sapiens, UniProt Q13464)	87.5%
PLK3 (Homo sapiens, UniProt Q9H4B4)	94.9%
MAPK11 (Homo sapiens, UniProt Q15759)	83%
KDR (Homo sapiens, UniProt P35968)	98.7%
Myosin-IIIb (MYO3B, Homo sapiens, UniProt Q8WXR4)	107%

Sample 3
Target: His6 tag
Method: AlphaScreen counter screen
Concentration: concentration not given
SMILES	inhibition
C[C@H](Nc1ncnc2nc[nH]c12)c1cc2cccc(Cl)c2c(=O)n1-c1ccccc1	9.75%
COc1ccc(CNC(=O)c2n[nH]c3ccccc23)cn1	2.35%
CC=CCn1cnc2c1c(=O)n(C)c(=O)n2C	-10.9%
CC(=O)CCCCn1c(=O)c2c(ncn2C)n(C)c1=O	6%
COc1ccc(-c2nnc3ccc(SCC(=O)N4CCOCC4)nn23)cc1OC	10.7%

Sample 4
Organism: Plasmodium berghei
Action: inhibitor
Cell line: Huh-7
Strain: liver stage
Concentration: 10 µM
Time: 24 h
Baseline: untreated control
SMILES	infection rate [%]
CCCCCCc1ccc(O)cc1O	96.7
Nc1nc(=O)c2nc(CNc3ccc(C(=O)N[C@@H](CCC(=O)O)C(=O)O)cc3)cnc2[nH]1	113
O=c1[nH]cc(F)c(=O)[nH]1	81.9
CC[C@@H](Cc1c(I)cc(I)c(N)c1I)C(=O)O	86

For quick reference, copied from above (sample 2):
target	remaining activity
PLK3 (Homo sapiens, UniProt Q9H4B4)	94.9%
MAPK11 (Homo sapiens, UniProt Q15759)	83%
KDR (Homo sapiens, UniProt P35968)	98.7%
